Results gathered from unrelated publications.
Each line is one published result; not all experiments were run side by side. ± gives the spread as reported.

Cc1nc([C@H](NC(=O)c2ccc(-c3ccc(Cl)cc3)[nH]2)[C@@H]2CCCCN2)sc1CO  CC50 (U87.CD4.CXCR4; cell growth or viability, XTT): ~30 µM
O=C(O)CCC(NP(=O)(O)OCCC[C@@H](NC(=O)CCC(NC(=O)CCCCCNC(=O)CCCCCNC(=O)c1ccc([18F])cc1)C(=O)O)C(=O)O)C(=O)O (stereo partly drawn)  tracer uptake (CWR22Rv1 tumour model; host not given, lung; intravenous, 2 h, tumour-bearing): 0.11 %ID/g
Nc1nc(SCCN2CCCC2)nc2sc3c(c12)CCC(c1ccccc1)C3 (stereo not drawn)  metabolized compound (mouse liver microsomes; 30 min): 38 ± 16%
CN(C)CC1CCCCC1(O)c1cccc(O)c1 (stereo not drawn)  Papp A-to-B (Caco-2 TC7 monolayer; 1 µM, 3 h, apical pH 6.8, basolateral pH 7.4): 8.3 ± 0.3 ×10⁻⁶ cm/s
Cl.Cl.Cl.Cl.Cl.Cl.Cl.Cl.Cl.Cl.Cl.Cl.NC[C@@H]1O[C@H](O[C@H]2[C@@H](O)[C@H](O[C@@H]3[C@@H](O)[C@H](N)C[C@H](N)[C@H]3O[C@H]3O[C@H](CN)[C@@H](O)[C@H](O)[C@H]3N)O[C@@H]2Cn2cc(CCCc3cn(C[C@H]4O[C@@H](O[C@@H]5[C@@H](O)[C@H](N)C[C@H](N)[C@H]5O[C@H]5O[C@H](CN)[C@@H](O)[C@H](O)[C@H]5N)[C@H](O)[C@@H]4O[C@H]4O[C@@H](CN)[C@@H](O)[C@H](O)[C@H]4N)nn3)nn2)[C@H](N)[C@@H](O)[C@@H]1O  CT5 (MT-2; cytotoxicity): > 138 µM
COc1cc(C(=O)NCCOCCOCCOCCNC(=O)c2ccc([18F])nc2)ccc1NC(=O)C1NC(CC(C)(C)C)C(C#N)(c2ccc(Cl)cc2F)C1c1cccc(Cl)c1F (stereo not drawn)  tracer uptake (HepG2 tumour model; host not given, muscle; 2 h, tumour-bearing): 0.88 %ID/g
COc1ccc(CNc2nc(N3CCC[C@H]3CO)ncc2C(=O)NN)cc1Cl  revertant count (Salmonella typhimurium; TA102; 500 µg/plate): 274 ± 8
CCCCCCCC(=O)NCC(=O)N[C@@H](CC(C)C)C(=O)N[C@@H](CC(C)C)C(=O)N[C@@H](CCCCN)C(=O)N[C@@H](CCCNC(=N)N)C(=O)N[C@H](C(=O)N[C@@H](CCCCN)C(=O)N[C@H](C(=O)N[C@@H](CC(C)C)C(=O)N[C@@H](CC(C)C)C(=O)NCCCC[C@H](NC(=O)[C@H](CCCCNC(=O)[C@H](CC(C)C)NC(=O)[C@H](CC(C)C)NC(=O)[C@@H](NC(=O)[C@H](CCCCN)NC(=O)[C@@H](NC(=O)[C@H](CCCNC(=N)N)NC(=O)[C@H](CCCCN)NC(=O)[C@H](CC(C)C)NC(=O)[C@H](CC(C)C)NC(=O)CNC(=O)CCCCCCC)[C@@H](C)CC)[C@@H](C)O)NC(=O)[C@H](CC(C)C)NC(=O)[C@H](CC(C)C)NC(=O)[C@@H](NC(=O)[C@H](CCCCN)NC(=O)[C@@H](NC(=O)[C@H](CCCNC(=N)N)NC(=O)[C@H](CCCCN)NC(=O)[C@H](CC(C)C)NC(=O)[C@H](CC(C)C)NC(=O)CNC(=O)CCCCCCC)[C@@H](C)CC)[C@@H](C)O)C(N)=O)[C@@H](C)O)[C@@H](C)CC  minimum haemolytic concentration (human erythrocytes; 1 h, 37 °C, 10% haemolysis): 59.7 µM
CN[C@](C)(C[18F])C(=O)O  tracer uptake (A549 tumour model; host not given, pancreas; 30 min, tumour-bearing): 38 %ID/g
CCCC(=O)NCC(=O)N[C@@H](CC(C)C)C(=O)N[C@@H](CC(C)C)C(=O)N[C@@H](CCCCN)C(=O)N[C@@H](CCCNC(=N)N)C(=O)N[C@H](C(=O)N[C@@H](CCCCN)C(=O)N[C@H](C(=O)N[C@@H](CC(C)C)C(=O)N[C@@H](CC(C)C)C(N)=O)[C@@H](C)O)[C@@H](C)CC  minimum haemolytic concentration (human erythrocytes; 1 h, 37 °C, 10% haemolysis): > 256 µM
O=C(O)CCC(NP(=O)(O)OCCC[C@@H](NC(=O)CCC(NC(=O)CCCCCNC(=O)c1ccc([18F])cc1)C(=O)O)C(=O)O)C(=O)O (stereo partly drawn)  tracer uptake (CWR22Rv1 tumour model; host not given, tumour; intravenous, 2 h, tumour-bearing): 1.65 %ID/g
COc1ccc(CNc2nc(N3CCC[C@H]3CO)ncc2C(=O)NNC(=O)c2cnc(N3CCC[C@H]3CO)nc2NCc2ccc(OC)c(Cl)c2)cc1Cl  revertant count (Salmonella typhimurium; TA98; 1000 µg/plate, 48 h, together with: rat liver S9): 31 ± 5
C[C@]12CC[C@H](OCC[18F])C[C@H]1CC[C@@H]1[C@@H]2CC[C@]2(C)[C@@H](c3ccc(=O)oc3)CC[C@]12O  tracer uptake (SMMC-7721 tumour model; nude, tumour; intravenous, 7.4 MBq, 55 min, tumour-bearing): 4.7 %ID/g
O=C1CC(=O)N(c2ccccc2)c2cc(Cl)ccc2N1  Cmax (C57BL/6 mice, whole blood; oral, 10 mg/kg): 6.6 µM
CCCCCC(=O)NCC(=O)N[C@@H](CC(C)C)C(=O)N[C@@H](CC(C)C)C(=O)N[C@@H](CCCCN)C(=O)N[C@@H](CCCNC(=N)N)C(=O)N[C@H](C(=O)N[C@@H](CCCCN)C(=O)N[C@H](C(=O)N[C@@H](CC(C)C)C(=O)N[C@@H](CC(C)C)C(=O)NCCCC[C@H](NC(=O)[C@H](CC(C)C)NC(=O)[C@H](CC(C)C)NC(=O)[C@@H](NC(=O)[C@H](CCCCN)NC(=O)[C@@H](NC(=O)[C@H](CCCNC(=N)N)NC(=O)[C@H](CCCCN)NC(=O)[C@H](CC(C)C)NC(=O)[C@H](CC(C)C)NC(=O)CNC(=O)CCCCC)[C@@H](C)CC)[C@@H](C)O)C(N)=O)[C@@H](C)O)[C@@H](C)CC  minimum haemolytic concentration (human erythrocytes; 1 h, 37 °C, 10% haemolysis): 6.08 µM
CCC(=O)N(C)c1ccc(Cl)c(Cl)c1  revertants (Salmonella typhimurium; Ames test; TA1537; 0.05 mg/plate, with rat liver S9): 3 ± 2.6 revertants/plate
CCCCCCCCCC(=O)NCC(=O)N[C@@H](CC(C)C)C(=O)N[C@@H](CC(C)C)C(=O)N[C@@H](CCCCN)C(=O)N[C@@H](CCCNC(=N)N)C(=O)N[C@H](C(=O)N[C@@H](CCCCN)C(=O)N[C@H](C(=O)N[C@@H](CC(C)C)C(=O)N[C@@H](CC(C)C)C(=O)NCCCC[C@H](NC(=O)[C@H](CC(C)C)NC(=O)[C@H](CC(C)C)NC(=O)[C@@H](NC(=O)[C@H](CCCCN)NC(=O)[C@@H](NC(=O)[C@H](CCCNC(=N)N)NC(=O)[C@H](CCCCN)NC(=O)[C@H](CC(C)C)NC(=O)[C@H](CC(C)C)NC(=O)CNC(=O)CCCCCCCCC)[C@@H](C)CC)[C@@H](C)O)C(=O)NCCCC[C@H](NC(=O)[C@H](CCCCNC(=O)[C@H](CC(C)C)NC(=O)[C@H](CC(C)C)NC(=O)[C@@H](NC(=O)[C@H](CCCCN)NC(=O)[C@@H](NC(=O)[C@H](CCCNC(=N)N)NC(=O)[C@H](CCCCN)NC(=O)[C@H](CC(C)C)NC(=O)[C@H](CC(C)C)NC(=O)CNC(=O)CCCCCCCCC)[C@@H](C)CC)[C@@H](C)O)NC(=O)[C@H](CC(C)C)NC(=O)[C@H](CC(C)C)NC(=O)[C@@H](NC(=O)[C@H](CCCCN)NC(=O)[C@@H](NC(=O)[C@H](CCCNC(=N)N)NC(=O)[C@H](CCCCN)NC(=O)[C@H](CC(C)C)NC(=O)[C@H](CC(C)C)NC(=O)CNC(=O)CCCCCCCCC)[C@@H](C)CC)[C@@H](C)O)C(N)=O)[C@@H](C)O)[C@@H](C)CC  minimum haemolytic concentration (human erythrocytes; 1 h, 37 °C, 10% haemolysis): 12.5 µM
C[C@@](O)(C(F)F)[C@H](NC(=O)c1ccc(C#CC#CC2CC2)cc1)C(=O)NO  AUC(0-inf) (CD-1 mouse; oral, 40 mg/kg, fasted): 18200 ± 3700 ng·h/mL

For quick reference, copied from above:
COc1cc(C(=O)NCCOCCOCCOCCNC(=O)c2ccc([18F])nc2)ccc1NC(=O)C1NC(CC(C)(C)C)C(C#N)(c2ccc(Cl)cc2F)C1c1cccc(Cl)c1F (stereo not drawn)  tracer uptake (HepG2 tumour model; host not given, muscle; 2 h, tumour-bearing): 0.88 %ID/g
